Published values gathered from unrelated publications.
Lines come from different studies, so protocols differ. “And” joins repeats or separate records; there may be more than shown. Numbers after ± are the reported error.
Sequence of UniProt Q12851 (whole entry, looked up): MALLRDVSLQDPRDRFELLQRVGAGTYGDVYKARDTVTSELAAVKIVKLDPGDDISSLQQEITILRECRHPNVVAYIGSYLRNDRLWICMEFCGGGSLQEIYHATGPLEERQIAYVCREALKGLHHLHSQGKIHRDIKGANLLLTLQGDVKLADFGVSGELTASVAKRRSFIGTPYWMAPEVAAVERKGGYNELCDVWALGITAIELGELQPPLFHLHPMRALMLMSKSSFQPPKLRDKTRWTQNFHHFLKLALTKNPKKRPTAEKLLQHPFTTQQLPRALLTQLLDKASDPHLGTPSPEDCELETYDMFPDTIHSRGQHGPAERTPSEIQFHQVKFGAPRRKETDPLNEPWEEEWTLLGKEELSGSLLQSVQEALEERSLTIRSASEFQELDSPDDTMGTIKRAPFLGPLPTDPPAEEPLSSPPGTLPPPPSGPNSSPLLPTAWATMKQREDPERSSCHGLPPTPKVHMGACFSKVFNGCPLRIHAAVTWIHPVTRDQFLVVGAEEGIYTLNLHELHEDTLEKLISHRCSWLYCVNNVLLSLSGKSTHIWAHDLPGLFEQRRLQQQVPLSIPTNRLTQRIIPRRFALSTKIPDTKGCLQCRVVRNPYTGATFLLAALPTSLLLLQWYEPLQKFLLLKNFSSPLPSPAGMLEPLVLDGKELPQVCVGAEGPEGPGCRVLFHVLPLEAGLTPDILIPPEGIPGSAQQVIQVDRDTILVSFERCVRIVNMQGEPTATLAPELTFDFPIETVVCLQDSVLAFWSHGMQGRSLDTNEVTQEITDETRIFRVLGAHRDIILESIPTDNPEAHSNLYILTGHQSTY

COc1ccccc1-c1n[nH]c2nc(N[C@H]3CC[C@H](NS(=O)(=O)CC(C)C)CC3)ncc12  relative abundance (bead binding, competition bead pull-down, item: LINJ.21.1320; Leishmania donovani extract; 10 µM; relative to: vehicle): 0.85
CC1CCC2C(C)C(OC(=O)CCC(=O)N3CCC(Nc4ccc(S(=O)(=O)NC(=O)c5ccc(N6CCN(CC7=C(c8ccc(Cl)cc8)CC(C)(C)CC7)CC6)cc5Oc5cnc6[nH]ccc6c5)cc4[N+](=O)[O-])CC3)OC3OC4(C)CCC1C32OO4 (stereo not drawn)  viable cells (THP-1; annexin V/PI flow cytometry, item: annexin V-/PI-; 3.2 µM, 24 h): 6.4%
O=C(C[Se]C(=O)c1ccco1)Nc1cccc(C(F)(F)F)c1  mean TGI (NCI60 melanoma subpanel; total growth inhibition, inhibitor; five-dose): 10.3 µM
CC(CO)C1CN2C(=O)[C@H](CC(=O)O)NC(=O)CC(CC3CC3)NC(=O)[C@H](CCC(=O)O)NC(=O)CNC(=O)[C@H]([C@@H](C)O)NC(=O)[C@H](CCC(=O)O)NC(=O)[C@@H]2C1(F)F (stereo partly drawn)  IL-6 protein level (RAW264.7; ELISA; concentration not given, together with: LPS): inhibited
COc1ccccc1-c1n[nH]c2nc(NC3CCN(C(=O)Cc4ccc(F)cc4F)CC3)ncc12  relative abundance (bead binding, competition bead pull-down, item: LINJ.32.2780; Leishmania donovani extract; 10 µM; relative to: vehicle): 0.99
O=C1NC2(CC2)COc2ncc(F)cc2[C@H]2COCCN2c2ccn3ncc1c3n2  prothrombin time (Sprague-Dawley rat, male, plasma; oral, 10 mg/kg/day, end of treatment, 4-week repeated-dose toxicity): 8.9 ± 0.6 s
Cc1cc(C(=O)Nc2nc3cccc(C)c3n2[C@H]2CCCCN(C(=O)/C=C/CN(C)C)C2)ccn1  cell cycle distribution (Trypanosoma brucei; propidium iodide flow cytometry, item: Multi phase; bloodstream CLK1 over-expression uninduced; concentration not given): 17% and 14.5% and 14.3%
CC[C@H](C)[C@H](NC(=O)[C@H](C)NC(=O)CNC(=O)[C@H](Cc1ccccc1)NC(=O)[C@H](CC(N)=O)NC(=O)[C@H](CC(N)=O)NC(=O)[C@H](CO[C@@H]1O[C@H](CO)[C@@H](O)[C@H](O)[C@H]1NC(C)=O)NC(=O)[C@H](CO)NC(=O)[C@H](Cc1c[nH]cn1)NC(=O)[C@@H](NC(=O)[C@H](CC(C)C)NC(=O)[C@H](Cc1ccccc1)NC(=O)[C@H](CC(N)=O)NC(=O)[C@H](C)NC(=O)[C@@H](N)CC(C)C)C(C)C)C(=O)N[C@@H](CC(C)C)C(N)=O  viability (INS-1; MTT; 2 equivalents to hIAPP, 24 h, together with: hIAPP 1 µM): 68.6%
O=C(C[Se]C(=O)c1cccs1)Nc1cccc(C(F)(F)F)c1  mean growth percent (NCI60 melanoma subpanel; cell growth; 10 µM, 48 h, one-dose): -84%
CN(C)[C@H]1C[C@@]23CC[C@@]4(O2)C(=CC[C@]2(C)[C@@H](c5ccc6ccncc6c5)CC[C@H]24)C=C3[C@@H](O)[C@@H]1O  inhibition (Mitogen-activated protein kinase kinase kinase kinase 2 (MAP4K2, Homo sapiens, UniProt Q12851); ATP probe labelling, inhibitor, KiNativ profiling; 1 µM): 3%
COc1ccccc1-c1ccncc1C(=O)Nc1nnc(OCc2ccc(Cl)cc2)s1  colony survival (RPE-1 BRCA1 WT parental; 1 µM, run 2; relative to: untreated): 81.6%
CC(=O)NCSC[C@H](NC(=O)[C@@H]1CCCN1C(=O)[C@H](C)NC(=O)[C@@H](NC(=O)CNC(=O)[C@@H](NC(=O)[C@H](Cc1c[nH]c2ccccc12)NC(=O)[C@H](C)NC(=O)CNC(=O)[C@H](CO)NC(=O)[C@H](C)NC(=O)[C@@H]1CCCN1C(=O)[C@H](Cc1c[nH]c2ccccc12)NC(=O)[C@H](C)NC(=O)[C@H](C)NC(=O)[C@@H](N)Cc1ccc(O)cc1)[C@@H](C)O)[C@@H](C)O)C(=O)N[C@@H](CO)C(=O)N[C@@H](C)C(=O)NCC(=O)N[C@H](C(=O)NCCOCCOCCOCCOCCOCCOCCOCCOCCOCCOCCOCCOCCC(=O)N[C@@H](CS)C(N)=O)[C@@H](C)O  selectivity ratio (HCC95; phage binding; relative to: targeting over control phage): 1.2 ± 0.66
CC(C)(C)C(=O)OCOP(=O)(OCOC(=O)C(C)(C)C)C1CCCN(O)C1=O (stereo not drawn)  CC50 (HOP-92): > 100 µM
NC(=S)N/N=C/c1ccc(OCc2ccccc2)cc1  catalase activity (OD450) (IMR-32; 200 µg/mL, 24 h; higher = more activity): 0.045 a.u.
N[C@H](C(=O)N1CCCC1)C1CCN(c2nccc3c(-c4ncc(Cl)cc4Cl)cccc23)CC1  inhibition (human neutrophils; protein citrullination, inhibitor, flow cytometry, item: citrullinated histone H3; 1 µM, together with: ionomycin): 61.3% and 57.4% and 45.3% and 51.5%

Repeated from above:
O=C(C[Se]C(=O)c1ccco1)Nc1cccc(C(F)(F)F)c1  mean TGI (NCI60 melanoma subpanel; total growth inhibition, inhibitor; five-dose): 10.3 µM
CC(CO)C1CN2C(=O)[C@H](CC(=O)O)NC(=O)CC(CC3CC3)NC(=O)[C@H](CCC(=O)O)NC(=O)CNC(=O)[C@H]([C@@H](C)O)NC(=O)[C@H](CCC(=O)O)NC(=O)[C@@H]2C1(F)F (stereo partly drawn)  IL-6 protein level (RAW264.7; ELISA; concentration not given, together with: LPS): inhibited
